Results of several laboratories.
Protocols differ between the studies behind these lines. Several values in a cell are separate wells, animals, samples, runs or records. Numbers after ± are the reported error.

SMILES | test | test system | conditions | scale | quantity | value
Cc1cc(C)nc(Nc2ncc(C(=O)NCCc3c(C)[nH]c4ccccc34)cn2)c1 |  | mouse liver microsomes | 1 µM |  | maximal hepatic bioavailability | 24%
Cc1ccc(F)c2cc(C(=O)N[C@@H]3CCC[C@H](N4CC[C@H](N(C)S(C)(=O)=O)C4)C3)[nH]c12 |  | CD1 mouse, plasma | oral, 30 mg/kg, 0.5 h |  | plasma concentration | 590 ng/mL
CC1(C)[C@H](C=C(Cl)Cl)[C@H]1C(=O)OCc1cccc(Oc2ccccc2)c1 | refers to: CYP1A2 | human, age 6 months, recombinant human CYP1A2 | 0.1 µM |  | enzyme contribution to clearance | 0.02%
N#Cc1ccc(N2CCN(Cc3ccc(COc4cccc5c4CN([C@H]4CCC(=O)NC4=O)C5=O)cc3)CC2)c(F)c1 | population PK model | human | oral, BLQ concentrations excluded |  | clearance | 34.9 L/h
CCN1CCN(Cc2ccc(Nc3ncc(F)c(-c4cc(F)c5nc6n(c5c4)[C@H](C)CCC6)n3)nc2)CC1 |  | advanced solid tumour patients | dose not given, Phase Ia monotherapy |  | Vomiting incidence, any grade | 41.7%
O=C(Nc1ccccc1)C1CCN(C(=O)Oc2cccnc2)CC1 |  | healthy women | oral, 60 mg, 7 days |  | adverse event Asthenia | 14.3%
COc1cccc(Oc2ccccc2NC(=O)CNC(=O)c2cccc3ccccc23)c1 |  | esterase-deficient SCID mice, male | oral, 100 mg/kg/day, 14 days, toxicity study |  | serum calcium | 10 mg/dL and 9.3 mg/dL and 10.6 mg/dL
CC(C)CC(=O)OC[C@H]1O[C@@](C#N)(c2ccc3c(N)ncnn23)[C@H](O)[C@@H]1O |  | rat plasma | 0.9 to 90 µM |  | fraction bound | 0.911
Cc1cc(C)c(CNC(=O)c2cc(Cl)c3c(c2C)O[C@@](C)([C@H]2CC[C@H](N(C)C)CC2)O3)c(=O)[nH]1 |  | relapsed/refractory NHL patients | dose not given, trial, safety set, treatment-related TEAE grade 5 |  | incidence of blood LDH increased | 0%
Cn1cncc1-c1c(F)cncc1NC(=O)c1c(N)nn2cc(F)cnc12 |  | human patients | oral, 270 mg once daily, 21 days |  | dose-limiting toxicity upper GI haemorrhage | 25%
O[C@H]1CCCN[C@@H]1CCCn1cnc2c(Cl)c(Cl)ccc21 |  | healthy humans, plasma | oral, 150 mg single dose |  | Vd/F | 2250 L
COc1cc2c(Oc3ccc4[nH]c(C)cc4c3F)ccnc2cc1OCC1(N)CC1 |  | paediatric recurrent refractory sarcoma | 10 mg |  | grade 1 or 2 Leukopenia | 25%
Cn1ncc(-c2nc(N[C@H]3CC[C@H](N)CC3)ncc2Cl)c1CC1CC1 | refers to: hypokalemia grade 3 or higher | human patients phase I | dose not given |  | adverse event incidence | 23%
CC(=O)c1c(C)c2cnc(Nc3ccc(C4CCN(CCS(C)(=O)=O)CC4)cn3)nc2n(C2CCCC2)c1=O |  | human, plasma | oral, 75 mg, day 1 single dose |  | Vd | 1490 L
CN1CCN(S(=O)(=O)c2cc([N+](=O)[O-])ccc2N(CCOS(C)(=O)=O)CCOS(C)(=O)=O)CC1 |  | naive NOD/SCID mice, pooled blood | intraperitoneal, 25 mg/kg, week 4 |  | alkaline phosphatase | 82 U/L
COc1ccc(-c2c(-c3ccc(C#N)c(F)c3)nc(N3CCC(N)CC3)n(C)c2=O)cc1F | refers to: small intestinal obstruction | human patients | oral, dose not given, dose escalation |  | serious TEAE incidence | 2%
CC[C@H](C)[C@@H]1NC(=O)[C@H](Cc2ccc(O)cc2)NC(=O)[C@H](CC(=O)O)NC(=O)CCc2cccc3c2Oc2c(cccc2-3)CCNC(=O)[C@H](CC(=O)O)NC(=O)[C@H](CC(=O)O)NC(=O)[C@H](CCCCN)NC1=O |  | mouse | 4 h |  | metabolised | > 50%
O=c1ccc2ncc(=O)n3c2n1C[C@H]3CN1CCC(NCc2cc3c(cn2)OCCC3)CC1 |  | healthy human participants, plasma | oral, 1500 mg, median, compound alone |  | tlag | 0 h
CCN(CCO)CCCC(C)Nc1ccnc2cc(Cl)ccc12 (stereo not drawn) |  | human, newly diagnosed glioblastoma | oral, 400 mg/dose, muscle weakness grade 1, with RT and TMZ |  | patients with adverse event | 14%
Nc1nc2cc(-c3ccc4ncc(C(=O)N5CCOCC5)n4c3)ccc2o1 |  | advanced solid tumour patients | dose not given, drug-related, once-daily dosing | reference: patients | grade ≥3 ALT/AST elevation | 21%

SMILES | test | test system | conditions | scale | quantity | value
O=[Se](=O)([O-])[O-].[Na+].[Na+] |  | rat | subcutaneous, 0.2 mg/kg |  | Tmax | 1 h
O=C(O)CCCOc1ccc(F)cc1-c1cc(-c2ccccc2C(F)(F)F)n(-c2ccccc2)n1 | refers to: ALT | Crl:CD(SD) rats, male, serum | iv, 25 µg/kg, 14 days |  | serum enzyme activity | 34.7 ± 3.9 U/L
C[C@]1(CO)Cc2ncn(-c3ccc(C#N)c(Cl)c3)c2C(=O)O1 |  | healthy Japanese adults, plasma | 80 mg once daily, multiple dose |  | half-life at steady state | 5.9 h
CCc1ccc(CC/C=C/c2ccc3c(c2)C(=O)CC3)cc1 |  | Sprague-Dawley rat, female | oral, 30 mg/kg/day, 14 days |  | Neutrophil percentage | 13.5%
C[C@]1(O)C[C@@](N)(c2ccc(-c3nc4n(c3-c3ccccc3)COc3ccncc3-4)cc2)C1 |  | human, advanced or metastatic solid tumours | 16 mg once daily, phase I dose escalation |  | patients with Diarrhea TEAE | 0%
CC[C@H](C)CCCCC(=O)N[C@@H](CCN)C(=O)N[C@H](C(=O)N[C@@H](CCN)C(=O)N[C@H]1CCNC(=O)[C@H]([C@@H](C)O)NC(=O)[C@H](CCN)NC(=O)[C@H](CCN)NC(=O)[C@H](CC(C)C)NC(=O)[C@@H](Cc2ccccc2)NC(=O)[C@H](CCN)NC1=O)[C@@H](C)O |  | critically ill patients, AKI, plasma | intravenous, 150 mg/day, 6 h, median |  | concentration at steady state | 3000 ng/mL
CN1CC[C@@H](c2c(O)cc(O)c3c(=O)cc(-c4ccc(C(F)(F)F)cc4Cl)oc23)[C@@H]1CO | refers to: Lymphopenia | relapsed AML | oral, 150 mg, grade 3-4, intermittent dosing |  | patients with adverse event | 25%
CC(C)C[C@H](NC(=O)[C@H](CCC1CCCCC1)NC(=O)[C@@H]1CCCN1C(=O)c1ccc(F)cc1)C(=O)NC(C)(C)C(=O)N[C@@H](CC(C)C)C(=O)N[C@@H](CC(C)C)C(=O)NC(C)(C)C(=O)NC(C)(C)C(=O)NCCC(=O)NC1(CN(C)C)CCC1 |  | Sprague-Dawley rat female | 7 days, dose escalation |  | tolerated dose | 300 mg/kg
O.O.O.O.O.O.[Cl-].[Cl-].[Co+2] |  | rat male, urine | oral, 10 mg/kg single, day 2 |  | urinary cobalt creatinine-corrected | 0.097 µg/µmol creatinine
C[C@@H]1OC(=O)NN=C1c1ccc(-c2ccc(F)cc2)c(C(F)(F)F)c1 | phase I trial, refers to: platelet count decreased | human patients | dose not given, worst grade 4, all doses |  | patients with TEAE | 20%
COc1cccc2c1CCCC2CCCN1CCN(C2CCCCC2)CC1 (stereo not drawn) |  | CD-1 mouse, male, plasma | intraperitoneal, 30 mg/kg |  | half-life | 3.18 h
COc1ccc([C@@H](O)c2cc(-c3ncnc4cc(N5CCOCC5)ccc34)c(F)cc2Cl)nn1 |  | patients, advanced solid tumours | oral, 200 mg twice daily, treatment-emergent, added: avelumab | reference: patients | vascular disorders incidence | 1%
C[C@@H]1NC(=O)[C@H](CCCCNC(=O)CO/N=C/C(=O)NCCCC[C@@H]2NC(=O)[C@@H](Cc3ccccc3)NC(=O)[C@H](CC(=O)O)NC(=O)CNC(=O)[C@H](CCCNC(=N)N)NC2=O)NC(=O)CNC(=O)[C@@H]2CCCN2C(=O)[C@H](CCCCNC(=O)CO/N=C/C(=O)NCCCC[C@@H]2NC(=O)[C@@H](Cc3ccccc3)NC(=O)[C@H](CC(=O)O)NC(=O)CNC(=O)[C@H](CCCNC(=N)N)NC2=O)NC(=O)[C@H](CCCCNC(=O)[C@H](CCCCN)NC(=O)[C@H](Cc2ccccc2)NC(=O)CNC(=O)CN2CCCNCCNCCCNCC2)NC(=O)[C@H](CCCCNC(=O)CO/N=C/C(=O)NCCCC[C@@H]2NC(=O)[C@@H](Cc3ccccc3)NC(=O)[C@H](CC(=O)O)NC(=O)CNC(=O)[C@H](CCCNC(=N)N)NC2=O)NC(=O)CNC(=O)[C@@H]2CCCN2C(=O)[C@H](CCCCNC(=O)CO/N=C/C(=O)NCCCC[C@@H]2NC(=O)[C@@H](Cc3ccccc3)NC(=O)[C@H](CC(=O)O)NC(=O)CNC(=O)[C@H](CCCNC(=N)N)NC2=O)NC1=O [copper-64 labelled] |  | normal mice, muscle | intravenous, 0.74 MBq, 3 h post-injection |  | tissue uptake | 0.34 ± 0.05 %ID/g
CC1(C)CN(CCCCC(=O)N[C@H](Cc2ccc(O)c(I)c2)C(=O)N[C@H](Cc2ccccc2)C(=O)N[C@H](CCCCNC(=O)CCCCCCC(=O)NCCCC[C@H](NC(=O)N[C@@H](CCC(=O)O)C(=O)O)C(=O)O)C(=O)O)CC[N]2CC(C)(C)[S][Tc]2(=[O])[S]1 (stereo partly drawn) [technetium-99m labelled] | radio-HPLC | PBS | 20 h, 25 °C |  | intact fraction | 98%
CO[C@H]1C[C@@H]2CC[C@@H](C)[C@@](O)(O2)C(=O)C(=O)N2CCCC[C@H]2C(=O)O[C@H]([C@H](C)C[C@@H]2CC[C@@H](OC(=O)NCCOCCOCCOCCOCCOCCOCCOCCOCCC(=O)N3CCc4cc(Cn5nc(-c6ccc7oc(N)nc7c6)c6c(N)ncnc65)ccc4C3)[C@H](OC)C2)C[C@@H](O)[C@H](C)/C=C(\C)[C@@H](O)[C@@H](OC)C(=O)[C@H](C)C[C@H](C)/C=C/C=C/C=C/1C |  | patients with advanced solid tumours | intravenous, 8 mg weekly, any grade |  | diarrhoea incidence | 31.3%
COc1ccc(C[C@@H]2NC(=O)[C@H]([C@@H](C)O)NC(=O)[C@@H]3[C@@H]4CCN3C(=O)[C@@H]3Cc5cn(c6ccc(F)cc56)CCCCCCN(Cc5ccc(cc5)CCNC(=O)[C@]5(C)CCCN5C2=O)C(=O)CCC(=O)N[C@@H](C)C(=O)N[C@H](CNC(=O)CCCCC[N+](C)(C)C)C(=O)N[C@@H](Cc2cccc(c2)CNC(=O)CO4)C(=O)N3)cc1 | refers to: Arthralgia | humans | concentration not given, Study-003 |  | participants with adverse event | 3.2%
CN(C(=O)n1cnc(-c2ccc[n+]([O-])c2)c1)C1CCCCC1 |  | Wistar rat, hippocampus | oral, 10 mg/kg, 24 h, single dose |  | concentration | 10 ± 1.3 ng/g
CCCCCCC#Cc1cncc(-c2nnc(SCc3cc([N+](=O)[O-])cc([N+](=O)[O-])c3)n2C)c1 |  | human plasma | plasma stability |  | t1/2 | > 8 h
O=c1cc(-c2ccc(O)c(O)c2)oc2cc(O)cc(O)c12 |  | male Sprague-Dawley rat, lean | oral, 100 mg/kg of neohesperidin, 12 to 24 h, after β-glucuronidase/sulfatase hydrolysis |  | urinary excreted amount, total | 29.2 ± 6.09 ng
